Results pooled from the literature.
Numbered parts are unrelated; each lists some results of a single study.
Sequence of UniProt P51817 (whole entry, looked up): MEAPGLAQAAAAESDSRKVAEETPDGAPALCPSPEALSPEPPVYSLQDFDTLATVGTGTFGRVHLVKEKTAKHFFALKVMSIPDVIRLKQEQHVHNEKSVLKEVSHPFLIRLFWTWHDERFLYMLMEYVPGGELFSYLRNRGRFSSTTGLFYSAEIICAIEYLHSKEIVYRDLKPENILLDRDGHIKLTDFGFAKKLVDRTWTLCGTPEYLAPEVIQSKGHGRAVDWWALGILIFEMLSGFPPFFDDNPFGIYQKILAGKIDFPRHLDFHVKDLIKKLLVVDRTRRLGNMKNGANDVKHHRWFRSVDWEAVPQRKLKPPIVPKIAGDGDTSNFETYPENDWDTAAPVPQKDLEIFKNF
Sequence of UniProt P68400 (whole entry, looked up): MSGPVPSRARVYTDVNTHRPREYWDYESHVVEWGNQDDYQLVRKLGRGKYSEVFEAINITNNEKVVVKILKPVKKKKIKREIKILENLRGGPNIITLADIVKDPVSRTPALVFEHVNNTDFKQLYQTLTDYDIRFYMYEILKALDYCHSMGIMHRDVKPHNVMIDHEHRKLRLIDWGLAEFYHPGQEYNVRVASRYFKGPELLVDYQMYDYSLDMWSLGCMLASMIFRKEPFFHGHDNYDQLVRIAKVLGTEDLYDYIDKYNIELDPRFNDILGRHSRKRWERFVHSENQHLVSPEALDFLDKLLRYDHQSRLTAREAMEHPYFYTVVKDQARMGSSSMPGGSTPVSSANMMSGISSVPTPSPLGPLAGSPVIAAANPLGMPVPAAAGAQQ
Sequence of UniProt Q96PY6 (whole entry, looked up): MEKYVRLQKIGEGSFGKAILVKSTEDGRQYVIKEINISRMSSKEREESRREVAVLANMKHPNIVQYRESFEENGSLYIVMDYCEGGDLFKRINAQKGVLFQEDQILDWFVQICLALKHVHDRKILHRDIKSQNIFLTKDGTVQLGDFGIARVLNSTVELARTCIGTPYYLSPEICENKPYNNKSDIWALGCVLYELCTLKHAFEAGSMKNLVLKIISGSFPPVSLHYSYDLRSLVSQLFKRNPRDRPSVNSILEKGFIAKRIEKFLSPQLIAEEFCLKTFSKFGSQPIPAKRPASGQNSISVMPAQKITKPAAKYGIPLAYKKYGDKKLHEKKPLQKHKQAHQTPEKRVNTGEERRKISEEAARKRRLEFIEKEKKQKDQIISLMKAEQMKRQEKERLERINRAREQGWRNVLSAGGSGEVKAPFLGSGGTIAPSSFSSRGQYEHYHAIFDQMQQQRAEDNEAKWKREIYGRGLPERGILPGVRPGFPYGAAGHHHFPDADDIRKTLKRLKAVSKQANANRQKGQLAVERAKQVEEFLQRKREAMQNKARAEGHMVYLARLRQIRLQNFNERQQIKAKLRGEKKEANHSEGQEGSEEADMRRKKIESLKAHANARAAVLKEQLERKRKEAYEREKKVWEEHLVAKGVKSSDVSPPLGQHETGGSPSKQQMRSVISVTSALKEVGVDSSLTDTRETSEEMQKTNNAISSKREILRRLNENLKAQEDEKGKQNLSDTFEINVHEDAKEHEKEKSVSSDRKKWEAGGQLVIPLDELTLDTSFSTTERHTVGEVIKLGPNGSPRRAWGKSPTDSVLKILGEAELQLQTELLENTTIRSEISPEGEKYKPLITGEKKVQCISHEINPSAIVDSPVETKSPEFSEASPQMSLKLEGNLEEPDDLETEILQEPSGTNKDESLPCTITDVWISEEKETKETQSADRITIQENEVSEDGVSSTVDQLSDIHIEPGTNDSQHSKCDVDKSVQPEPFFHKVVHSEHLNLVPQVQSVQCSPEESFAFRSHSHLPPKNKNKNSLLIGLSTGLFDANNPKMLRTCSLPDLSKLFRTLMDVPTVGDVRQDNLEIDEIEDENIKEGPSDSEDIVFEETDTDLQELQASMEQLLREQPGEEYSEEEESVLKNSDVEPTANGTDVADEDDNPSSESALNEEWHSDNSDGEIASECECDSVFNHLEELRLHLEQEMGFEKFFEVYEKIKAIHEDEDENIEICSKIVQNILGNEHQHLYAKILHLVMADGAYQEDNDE
Sequence of UniProt P51451 (whole entry, looked up): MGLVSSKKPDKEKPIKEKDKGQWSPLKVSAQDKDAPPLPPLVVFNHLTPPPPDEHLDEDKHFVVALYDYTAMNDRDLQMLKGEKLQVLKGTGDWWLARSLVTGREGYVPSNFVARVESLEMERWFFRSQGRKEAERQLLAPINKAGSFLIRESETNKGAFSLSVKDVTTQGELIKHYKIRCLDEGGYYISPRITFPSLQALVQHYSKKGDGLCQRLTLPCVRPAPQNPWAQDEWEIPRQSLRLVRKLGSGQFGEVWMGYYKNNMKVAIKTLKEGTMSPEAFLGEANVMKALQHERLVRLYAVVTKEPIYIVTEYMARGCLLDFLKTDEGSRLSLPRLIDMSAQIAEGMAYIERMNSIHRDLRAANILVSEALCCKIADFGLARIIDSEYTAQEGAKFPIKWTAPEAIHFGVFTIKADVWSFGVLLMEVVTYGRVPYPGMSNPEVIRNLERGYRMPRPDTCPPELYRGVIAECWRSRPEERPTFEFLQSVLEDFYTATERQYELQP
Sequence of UniProt P24723 (whole entry, looked up): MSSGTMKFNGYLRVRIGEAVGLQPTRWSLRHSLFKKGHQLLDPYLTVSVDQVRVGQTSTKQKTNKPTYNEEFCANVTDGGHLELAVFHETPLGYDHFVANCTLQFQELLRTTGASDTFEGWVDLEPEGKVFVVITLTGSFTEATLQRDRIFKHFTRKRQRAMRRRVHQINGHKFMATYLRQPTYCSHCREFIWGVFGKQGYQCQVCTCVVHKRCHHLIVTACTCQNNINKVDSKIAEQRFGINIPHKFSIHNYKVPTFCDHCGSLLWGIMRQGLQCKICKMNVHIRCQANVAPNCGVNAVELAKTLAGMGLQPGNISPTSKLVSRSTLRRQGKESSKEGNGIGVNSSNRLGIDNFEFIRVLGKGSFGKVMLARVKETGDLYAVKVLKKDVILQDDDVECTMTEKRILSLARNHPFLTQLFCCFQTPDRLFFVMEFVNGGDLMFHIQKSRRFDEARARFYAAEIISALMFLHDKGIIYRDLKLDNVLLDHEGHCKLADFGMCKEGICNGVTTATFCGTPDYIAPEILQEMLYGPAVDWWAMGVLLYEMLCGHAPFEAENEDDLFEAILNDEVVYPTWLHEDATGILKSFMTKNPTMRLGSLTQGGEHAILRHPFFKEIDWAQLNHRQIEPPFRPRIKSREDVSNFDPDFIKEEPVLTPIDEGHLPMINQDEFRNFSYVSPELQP

Block 1 — observed: kinase activity
Compound: CNc1ncc2cc(-c3cc(OC)cc(OC)c3Cl)c(=O)n(CCc3ccc(NC(=O)C(C#N)=CC(C)(C)N4CCOCC4)cc3)c2n1
| target | concentration | inhibition [%] |
| --- | --- | --- |
| TXK (Homo sapiens, UniProt P42681) | 1 µM | 2 |
| PRKCA (Homo sapiens, UniProt P17252) | 1 µM | -6 |
| RIPK2 (Homo sapiens, UniProt O43353) | 0.1 µM | -2 |
| MAP4K4 (Homo sapiens, UniProt O95819) | 0.1 µM | 0 |
| PRKCH (Homo sapiens, UniProt P24723) | 0.1 µM | -7 |
| PLK2 (Homo sapiens, UniProt Q9NYY3) | 0.1 µM | -8 |
| PRKCE (Homo sapiens, UniProt Q02156) | 1 µM | 13 |
| CSNK2A1 (Homo sapiens, UniProt P68400) | 1 µM | 10 |
| PRKX (Homo sapiens, UniProt P51817) | 1 µM | 1 |
| ITK (Homo sapiens, UniProt Q08881) | 0.1 µM | 2 |
| MAPK10 (Homo sapiens, UniProt P53779) | 1 µM | 7 |
| BLK (Homo sapiens, UniProt P51451) | 1 µM | -2 |
| NEK1 (Homo sapiens, UniProt Q96PY6) | 1 µM | 41 |
| EGFR (Homo sapiens, UniProt P00533) | 1 µM | 1 |

Block 2
Structure (SMILES): Cc1ccc(O)c(C)c1-c1cnc2[nH]c(-c3cnc(N4CCC5(CC4)CC(N4CCN(c6ccc(NC7CCC(=O)NC7=O)cc6F)CC4)CO5)nc3)cc2c1C#N (stereo not shown)
Target: Membrane-associated tyrosine- and threonine-specific cdc2-inhibitory kinase (PKMYT1, Homo sapiens, UniProt Q99640)
Residues (Q99640 1-499): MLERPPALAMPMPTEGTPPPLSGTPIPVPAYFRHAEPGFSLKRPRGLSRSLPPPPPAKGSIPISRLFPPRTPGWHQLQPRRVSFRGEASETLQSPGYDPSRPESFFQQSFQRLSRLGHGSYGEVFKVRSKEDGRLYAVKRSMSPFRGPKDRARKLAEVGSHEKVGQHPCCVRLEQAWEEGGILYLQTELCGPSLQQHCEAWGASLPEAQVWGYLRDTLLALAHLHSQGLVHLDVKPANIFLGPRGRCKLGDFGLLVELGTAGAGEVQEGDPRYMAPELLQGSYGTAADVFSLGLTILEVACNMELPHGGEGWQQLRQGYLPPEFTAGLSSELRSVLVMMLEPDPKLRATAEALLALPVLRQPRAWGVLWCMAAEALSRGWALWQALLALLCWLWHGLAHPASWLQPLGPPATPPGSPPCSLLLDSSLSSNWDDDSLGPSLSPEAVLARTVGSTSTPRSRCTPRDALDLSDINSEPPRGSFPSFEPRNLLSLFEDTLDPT
| cell line | concentration | degradation |
| --- | --- | --- |
| HCC1599 | 0.15 nM | 24.7% |
| HuCCT-1 | 12.35 nM | 80.6% |
| HCC1599 | 1.37 nM | 61.6% |
| MDA-MB-157 | 37.04 nM | 75.7% |
| HuCCT-1 | 0.05 nM | 14.3% |
| MDA-MB-157 | 4.12 nM | 61.9% |
| MDA-MB-157 | 0.05 nM | -1.1% |
| HuCCT-1 | 1000 nM | 30.2% |

Block 3 — cell line: U-87 MG; concentration: concentration not given; relative to: DMSO
Compound: CCN1/C(=C/C=C2\CCCC(/C=C/C3=[N+](CC)c4ccccc4C3(C)C)=C2NCCCCCCCCN2CCC(Nc3nc4ccccc4n3Cc3ccc(F)cc3)CC2)C(C)(C)c2ccccc21
| measured | log2 fold change |
| --- | --- |
| TOM1 mRNA | 0.827 |
| IL1RL1 mRNA | 3.01 |
| TAF4B mRNA | 1 |
| C10orf90 mRNA | -1.94 |
| BEAN1 mRNA | -2.1 |
| DHRS9 mRNA | -4.28 |
| NUDT15 mRNA | -1.06 |
| CADPS mRNA | -0.892 |
| RPS6KA2 mRNA | 2.32 |
| TMEM255A mRNA | -2.55 |
| OSGEPL1 mRNA | -1.22 |
| RNMT mRNA | 1.18 |
| RIPOR3 mRNA | -1.05 |
| ANO3 mRNA | 4.51 |
| CASP3 mRNA | 0.835 |
| REXO5 mRNA | -1.43 |

Block 4 — observed: thermal unfolding; technique: differential scanning fluorimetry; concentration: 5.5 µM; reading: higher = more unfolded
SMILES: C[C@@H]1CN(c2ccc(-c3cc(C(=O)NCCOCCOCCOCCOCCNC(=O)/C=C/c4[nH]cc(C(=O)N[C@@H](CC(N)=O)c5ccc(F)c(Cl)c5)c4-c4ccc(Cl)cc4F)ccc3F)cc2NC(=O)c2c[nH]c(=O)cc2C(F)(F)F)C[C@H](C)N1C
DCAF1: DDB1- and CUL4-associated factor 1 (DCAF1, Homo sapiens, UniProt Q9Y4B6)
Sequence of UniProt Q9Y4B6 (whole entry, looked up): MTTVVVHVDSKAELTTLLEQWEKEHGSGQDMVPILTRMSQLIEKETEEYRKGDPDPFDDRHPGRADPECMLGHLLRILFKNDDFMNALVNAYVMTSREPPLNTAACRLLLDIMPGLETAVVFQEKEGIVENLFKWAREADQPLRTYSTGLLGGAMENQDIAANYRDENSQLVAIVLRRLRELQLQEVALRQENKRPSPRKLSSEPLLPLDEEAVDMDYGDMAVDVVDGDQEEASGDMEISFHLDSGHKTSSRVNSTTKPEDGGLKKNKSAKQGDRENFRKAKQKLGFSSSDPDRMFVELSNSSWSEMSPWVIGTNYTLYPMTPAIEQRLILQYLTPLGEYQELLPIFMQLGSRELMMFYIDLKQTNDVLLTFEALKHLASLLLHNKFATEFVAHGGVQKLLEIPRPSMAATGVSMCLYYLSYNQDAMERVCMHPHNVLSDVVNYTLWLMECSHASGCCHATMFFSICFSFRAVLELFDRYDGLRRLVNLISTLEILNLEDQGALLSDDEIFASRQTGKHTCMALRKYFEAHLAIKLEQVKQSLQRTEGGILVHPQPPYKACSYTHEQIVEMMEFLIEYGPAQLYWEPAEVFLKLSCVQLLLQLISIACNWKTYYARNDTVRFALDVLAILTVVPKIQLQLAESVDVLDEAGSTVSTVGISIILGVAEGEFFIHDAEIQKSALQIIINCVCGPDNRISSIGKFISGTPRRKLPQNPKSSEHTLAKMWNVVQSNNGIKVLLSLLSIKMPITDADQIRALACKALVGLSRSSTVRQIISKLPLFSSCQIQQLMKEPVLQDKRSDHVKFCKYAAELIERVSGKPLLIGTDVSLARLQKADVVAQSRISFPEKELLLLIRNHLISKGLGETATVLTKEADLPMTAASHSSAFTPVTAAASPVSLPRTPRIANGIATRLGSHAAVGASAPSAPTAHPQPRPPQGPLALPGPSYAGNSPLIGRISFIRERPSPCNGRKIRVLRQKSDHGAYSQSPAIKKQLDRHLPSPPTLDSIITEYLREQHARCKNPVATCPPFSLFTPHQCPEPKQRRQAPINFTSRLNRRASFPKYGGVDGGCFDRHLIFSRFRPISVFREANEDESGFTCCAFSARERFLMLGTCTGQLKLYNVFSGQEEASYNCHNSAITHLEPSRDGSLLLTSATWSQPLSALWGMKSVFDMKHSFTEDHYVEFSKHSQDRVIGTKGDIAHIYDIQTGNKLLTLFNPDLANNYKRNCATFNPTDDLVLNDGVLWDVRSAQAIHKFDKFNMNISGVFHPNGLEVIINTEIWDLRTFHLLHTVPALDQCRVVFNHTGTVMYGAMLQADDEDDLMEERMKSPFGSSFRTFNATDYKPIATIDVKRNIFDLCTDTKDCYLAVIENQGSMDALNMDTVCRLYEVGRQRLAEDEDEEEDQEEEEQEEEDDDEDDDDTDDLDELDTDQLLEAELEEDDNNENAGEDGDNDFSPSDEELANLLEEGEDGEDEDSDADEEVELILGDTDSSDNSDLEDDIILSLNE
WDR5: WD repeat-containing protein 5 (WDR5, Homo sapiens, UniProt P61964)
| target | temperature | SYPRO Orange fluorescence |
| --- | --- | --- |
| DCAF1 | 64.41 °C | 57800 a.u. |
| WDR5 | 52.01 °C | 16800 a.u. |
| WDR5 | 73.41 °C | 22000 a.u. |
| DCAF1 | 70.61 °C | 55100 a.u. |
| DCAF1 | 49 °C | 14700 a.u. |
| WDR5 | 93.01 °C | 47500 a.u. |
| WDR5 | 89.21 °C | 52000 a.u. |
| DCAF1 | 26.2 °C | 8930 a.u. |
| DCAF1 | 68.41 °C | 57600 a.u. |
| DCAF1 | 31.4 °C | 9680 a.u. |
| DCAF1 | 72.81 °C | 52400 a.u. |
